Results pooled from the literature.
Protocols differ between the studies behind these lines. Values joined by “and” are separate records of one study, mostly repeats; a detail may differ. Numbers after ± are the reported error.

SMILES | organism | test | test system | conditions | scale | quantity | value
COc1cc2nc(N(CCCN(C)C)C(=O)c3ccc(S(=O)(=O)N4CCc5ccccc54)cc3)sc2cc1OC.Cl | Trypanosoma cruzi | reporter mRNA translation, inhibitor, refers to: Renilla luciferase mRNA | cell-free extract | concentration not given | baseline: positive over negative control | translation activity | 79.1% and 117%
CC1=CC(OC=C2C(=O)OC3c4ccccc4CC23)OC1=O (racemic) | Arabidopsis thaliana | seed germination, stimulant | htl-3 expressing ShHTL7 | 34 °C, continuous light | – | EC50 | 0.66 nM
CCc1c(C(=O)Nc2cc(S(=O)(=O)N(CC)CC)ccc2O)[nH]c(C)c1C(C)=O | Cryptosporidium parvum | parasite growth, qRT-PCR | HCT-8 | 44 h | – | EC50 | 2750 nM
Cc1cc(C(=O)Nc2nc3cccc(C)c3n2[C@H]2CCCCN(C(=O)/C=C/CN(C)C)C2)ccn1 | Trypanosoma brucei gambiense | growth inhibition, CellTiter-Glo | STIB930 | 48 h, mean value | – | EC50 | 58 nM
CC1=C(C)C(Oc2c(F)cc3c(C)cc(=O)oc3c2F)OC1=O (racemic) | Phelipanche ramosa | seed germination, stimulant | seeds | – | – | EC50 | 4.7 nM
O=C1/C(=C/c2ccc(O)c(Br)c2)CCC/C1=C\c1ccc(O)c(Br)c1 | Cryptosporidium parvum | parasite growth, qRT-PCR | HCT-8 | 44 h | – | EC50 | 8600 nM
Cn1c(=O)c(-c2ccccc2Cl)cc2cnc(Nc3cccc(S(C)(=O)=O)c3)nc21 | Cryptosporidium parvum | parasite growth, high-content imaging | HCT-8, BGF | 48 h | – | EC50 | 70 ± 10 nM
CC(=O)N(C)CCN1CCN(c2cnc3c(cc(C(=O)NCc4ccc(Cl)cc4)c(=O)n3CC(=O)N3CC(C)(F)C3)n2)C1=O | human cytomegalovirus | viral replication, GFP reporter | MRC-5, AD169-GFP | – | – | EC50 | 1750 nM
Cc1ccc2c(c1)nc(NC(=O)c1cccc(C(F)(F)F)c1)n2[C@H]1CC[C@H](N)CC1 | Trypanosoma brucei gambiense | growth inhibition, CellTiter-Glo | STIB930 | 48 h | – | EC50 | 490 nM and 500 nM and 350 nM and 190 nM
Cc1ccc(C(NC(=O)c2cc(-c3ccccc3)n(-c3ccccc3)n2)c2ccncc2)cc1 (centres unmarked) | dengue virus 2 | viral replication, immunofluorescence | Vero, New Guinea C | – | – | EC50 | 6700 nM
O=C(Nc1cc(-c2ccccn2)n[nH]1)N1CC[C@@H](Oc2ccc(F)cc2)C1 | Trypanosoma cruzi | reporter mRNA translation, inhibitor, refers to: Renilla luciferase mRNA | cell-free extract | concentration not given | baseline: positive over negative control | translation activity | 96.4% and 142%

Some of these lines once more:
SMILES | organism | test | test system | conditions | scale | quantity | value
Cc1ccc2c(c1)nc(NC(=O)c1cccc(C(F)(F)F)c1)n2[C@H]1CC[C@H](N)CC1 | Trypanosoma brucei gambiense | growth inhibition, CellTiter-Glo | STIB930 | 48 h | – | EC50 | 490 nM and 500 nM and 350 nM and 190 nM
Cc1ccc(C(NC(=O)c2cc(-c3ccccc3)n(-c3ccccc3)n2)c2ccncc2)cc1 (centres unmarked) | dengue virus 2 | viral replication, immunofluorescence | Vero, New Guinea C | – | – | EC50 | 6700 nM
